Measured values from different studies.
A part holds a random share of what one study measured.

Block 1
Target: RNA binding protein fox-1 homolog 2, RRM domain, GST-SBP tag (RBFOX2, Homo sapiens, UniProt O43251-10, residues 100-194)
Method: RNA Bind-n-Seq
Molecule type: RNA
Matrix: in vitro
Concentration: 365 nM
Setting: natural RNA segment, single round, ends assumed
Reference: no-protein control
Direction: higher = stronger binding
Target sequence (chain): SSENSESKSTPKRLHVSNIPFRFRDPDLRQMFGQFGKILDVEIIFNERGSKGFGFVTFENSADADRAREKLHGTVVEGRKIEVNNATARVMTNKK
Sequence | RBNS enrichment (R)
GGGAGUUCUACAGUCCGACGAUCCCAUUCUUCUCAAGCAAGGAUUGCCAGCGCGCGCUGACACAGUGAUGGGCUGCCCAGGGCUGGAGGGGACGCUGUUCCUCCCGCCGCCACUGCCCAACCUUUCCUGAUAAUGGAAUUCUCGGGUGCCAA | 0.255
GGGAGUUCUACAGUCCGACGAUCUUUAUUUUGUAACAUAUCAAUUAUAAAUAUUGUAUUUAUCUUUGAAAUUUUGUACAUUGCUUUUCCCACCUUUUCCUUUUUCUUCUUUCUUGUCUGUAUUGGUUUUUGAUUGGAAUUCUCGGGUGCCAA | 2.54
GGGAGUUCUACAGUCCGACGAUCAAAGCUGGGGAGGAGGAUCUACUGCUGUACAGCUAAUAAAUCAUAACGGAUUAACAAGUGCUCCAAAGACUCCAUCUUGCGUGAUUCCUGCCUGCUUGAGGGAGGCUGGGUGGAAUUCUCGGGUGCCAA | 4.45
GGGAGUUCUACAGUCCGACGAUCGAGCCGGGUGUGAACUAUGGUUUAGAAGGUUCAAGUUUCCAAUUAAAGUCAUUGAAGAAAACUUGAAUGAGUGUCUUCUUUGUAUAUGGCCUCCCUCCAAUGUCUGUCUCUGGAAUUCUCGGGUGCCAA | 0.503
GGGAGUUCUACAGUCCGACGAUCGGUGGAGGUUGCAGUGAGCUGAGAUCGUGCCGUUACUCUCCAACCUGGACAACAAGAGCGAAACUCCGUCUUAGAAGUGGACCAGGACAGGACCAGAUUUUGGAGUCAUGUGGAAUUCUCGGGUGCCAA | 0.454
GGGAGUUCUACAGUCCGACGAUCGAGGGCUGCUCCGGAGACCGUCACUCCAGGUGCAUUCUGGAAGCAUUAGACCCCAGGAUGGAGCGACCAGCAUGUCAUCCAUGUGGAAUCUUGGUGGCUUUGAGGACAUUUGGAAUUCUCGGGUGCCAA | 2.83
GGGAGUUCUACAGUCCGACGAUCGAGAGAGUGGCAGAUGCUCCAGUUUCACUUAAGCAGUGGUAAACGUUUGAAGGUUCGUUUUUUGUUGGAACUCCGGAUGUAGACUAGCCUAGCCUCAGAUCCUCCGUGAGUGGAAUUCUCGGGUGCCAA | 0.794
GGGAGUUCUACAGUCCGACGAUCGUCAUGUGCCGUGCCCUUUUCUGUUUCUGUGUAUCCUAUUGCUGGUGACUCUGUGUGAACUGGCCUUUGGGAAAGAUCAGAGAGGGCAGAGGUGGCACAGGACAGUAAAGUGGAAUUCUCGGGUGCCAA | 0.35

Block 2
Target: Prothrombin, mature alpha-thrombin (F2, Homo sapiens, UniProt P00734)
Method: aptamer microarray, sandwich
Molecule type: DNA with 2'F-ANA
Matrix: in vitro
Concentration: 200 nM
Setting: whole 15-mer aptamer, many near background
With: Cy3 exosite-II aptamer, 400 nM
Direction: higher = stronger binding
Sequence: GGTTGGTGTGGTTGG
Modification | mean fluorescence intensity [a.u.]
2'F-ANA at 4 5 7 9 10 11 13 15 | 42.6
2'F-ANA at 1 3 8 9 11 14 | 89
2'F-ANA at 2 3 4 5 8 9 10 11 12 13 15 | 77.4
2'F-ANA at 3 4 5 6 7 9 11 13 14 15 | 83.4
2'F-ANA at 2 4 7 10 14 15 | 63.4
2'F-ANA at 2 3 4 5 7 8 9 11 13 14 | 50.8
2'F-ANA at 2 3 4 7 9 10 12 13 14 15 | 187
2'F-ANA at 1 2 5 6 10 11 12 15 | 52.6
2'F-ANA at 1 7 10 13 15 | 52.7
2'F-ANA at 1 3 7 9 10 12 | 118
2'F-ANA at 1 2 5 6 8 10 12 | 49.9
2'F-ANA at 2 3 5 8 9 12 13 | 162
2'F-ANA at 9 10 11 12 14 | 103
2'F-ANA at 4 5 11 13 15 | 57.4
2'F-ANA at 2 4 7 8 9 10 11 13 14 15 | 64.5
2'F-ANA at 1 6 7 9 11 12 13 14 15 | 61
2'F-ANA at 1 2 12 | 400
2'F-ANA at 1 3 4 5 6 7 8 14 15 | 47.1

Block 3
Target: Sal-like protein 4, full length isoform B (SALL4, Homo sapiens, UniProt Q9UJQ4-2, residues 1-616)
Method: universal PBM
Molecule type: double-stranded DNA, one strand shown
Matrix: in vitro
Concentration: not given
Setting: 8-mer, flanks averaged, mean of replicates
Direction: higher = stronger binding
Sequence | E-score
GCCCTCTA | -0.211
CCAATAGA | 0.15
CAAGTTGC | -0.0399
CTTGCACC | -0.152
ATCGTTTA | 0.241
GGCGAGAC | -0.302
AAGTGACG | -0.0556
AGTATTTG | 0.14
TTACACAA | 0.255
ATCAATGG | 0.0424
GTAATCAC | 0.0827
ACCGGTCG | -0.186
GCCAACAA | -0.0616
AATGCTTA | 0.17
AGCTAGCG | -0.208
AACGGTTG | 0.13
AGTGAATC | -0.025
GCACATAA | 0.255
CGCGGTAC | -0.288
ACCCCCGT | -0.332
TCCAATCA | 0.0226

Other studies, line by line
Molecule | target | assay | test system | setting | scale | measurement | result
PPVIIKYIIINRF | Cln2 (Saccharomyces cerevisiae) | peptide binding, competitive growth sequencing | peptide, Saccharomyces cerevisiae, unfused Cln2 strain | mutational scanning library 2 | direction not given | enrichment score | -1.2
PhoQ, residues 284 288 289 292 302 303 TTSMTC | PhoP, residues 12 14 15 18 19 SYFRT (Escherichia coli, UniProt P23836) | Sort-seq, refers to: YFP reporter | E. coli | PhoQ-PhoP variant library, with: 10 µM Mg2+ | reference: high Mg2+ state, higher = stronger signaling | fold induction | 4.43

Repeated from above (block 2):
Modification | mean fluorescence intensity [a.u.]
2'F-ANA at 1 6 7 9 11 12 13 14 15 | 61
2'F-ANA at 2 3 4 5 8 9 10 11 12 13 15 | 77.4
2'F-ANA at 4 5 7 9 10 11 13 15 | 42.6
2'F-ANA at 2 3 5 8 9 12 13 | 162
2'F-ANA at 2 4 7 10 14 15 | 63.4
2'F-ANA at 2 3 4 5 7 8 9 11 13 14 | 50.8
2'F-ANA at 4 5 11 13 15 | 57.4
2'F-ANA at 9 10 11 12 14 | 103
